Experimental data gathered from unrelated publications.
Parts stem from different laboratories: compare values within a part only.

Study 1
Target: RNA binding protein fox-1 homolog 2, RRM domain, GST-SBP tag (RBFOX2, Homo sapiens, UniProt O43251-10, residues 100-194)
Technique: RNA Bind-n-Seq
Form: RNA
Sample: in vitro
Concentration: 365 nM
Setting: natural RNA segment, single round, ends assumed
Baseline: no-protein control
Reading: higher = stronger binding
Endpoint: RBNS enrichment (R)
Shared flanks, not repeated: GGGAGUUCUACAGUCCGACGAUC … UGGAAUUCUCGGGUGCCAA
Residues (chain): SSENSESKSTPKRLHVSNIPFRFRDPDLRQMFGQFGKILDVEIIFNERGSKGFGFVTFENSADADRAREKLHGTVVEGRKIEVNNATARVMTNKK
GGUCAGUUCAAAGUUGCAUUUGGGAUUCUAUGUCUUCCAAAUUGAACCGUCUGUAAUCAGUACAGCCACCCAAAGGGCUAUAGUUCUCAAUUAAAAUGCAAAUGGAUAUC: 0.672
UUUUGGAGAACGAUUCACUUAUGAAGACACCGAUUUUCAGCACAUGAUUGAGUUAUUUAGUGAAAAUGUGGAACUAGCUGCCAGUGCCUCAGUCUUCUUGUAUAAUGCCU: 1.06
AAUGCAAAAUGUAUUGCUUUUGAUAUUUCUAUUCUGAGAUGAACCAGUAGCAUGUAAUGCAACUGUUUGACAGUUUAACUCAAUUCAUGCUUCAAACUGUUUUAAUCAUC: 0.401
UGCCCCUGUUGGCCACAGCUUAUGGGCCCUGCCCUCUUUCUUCACACCAGCCCCUUGGCCAGCCUGCCGCAGGCAUCUCAGGGCCAUGCAGAUCCCAGGCUGUGGAUUAC: 0.546
GUGAGCCACUGCACCCAGCCCACUUUUUUUUUACUCUGAAGUGAUUCCAGUCAUAUGUGUGUGUAACUGCAUCCUAUGAGAAGAGCACAAAUAUUGCUGUUCCAUGUUCU: 0.797
GAAGCCCAGCUACCUGCCUUCACUGAAAUAUACCUCAGGCUGAGACGGGCGGGACAGCAGGUCAGUGGAUCUUCACCGGAAGGUGCAGCUUCUCGGCAUCAGCGCAGCUG: 0.297
CAGUGAUACAGUAUAAAGAUAAACAGAAAUGCUGAGAUACGCUUAGCACUUGAGUUGUACAACAGAACACUUGUACAAAAUAGAUUUUAAGGCUAACUUCUUUUCACUGU: 0.412
UGGUUUGAGAUGGCCACUUAUUGUCCUUAAAAAUCCAUACUGAUAUAUGCAGUCAUUUUGAAUUGGACAGUGCCUUCUCUUUUUUUUUCUCCUCUUCUUCCAUCUCCCUC: 0.406
CAUGCUAAUAUUUGUGAGACAUGAAAACUAUUUCAAAGCCAACUUUGUUGUCUUGUUGUAUAAGAAAUCUAGGUAGGUGCUUUCAACUAGAGUGUUGACCUUGUUAAGAC: 0.349
AAGGCAGUGACCUCCUACUGACUUCCAACACAAUCCAGGGACAUUCUUCUCAACCCUUCAAACUUCUGGUGACACUUAAGAUGUAGCUGAUUCCCCUCAUCCGAACUGCU: 1.24
CCUUGGCUCUAACUCUGCUGCUCUGGUCUCCCAGAGCCUCUAGGGGCAGGGGAGUGCUCCACAAGGUGGUUUGCUGGCUUCAGAGCCCUAGAAGCACAAGACAGUGGAGC: 0.206
AUUGGAGAAUGCUUGGUUUGCAUGUCUUGUGAUUUCUCCUGUAUUGUUCCUAGCUAAUUUCAUGGCUGUGGGAAGUUAGCAACACUAGGUUUAUGACUCUGAAGACCAGA: 8.78

Study 2
Target: PABPC1L2, full length, GST fusion (mouse, UniProt A0ABA7IW68)
Technique: RNAcompete
Form: RNA
Sample: in vitro
Concentration: 20 nM
Setting: 7-mer, probes averaged, single round
Baseline: mean of 7-mers
Reading: higher = stronger binding
Endpoint: 7-mer Z-score
Construct (chain): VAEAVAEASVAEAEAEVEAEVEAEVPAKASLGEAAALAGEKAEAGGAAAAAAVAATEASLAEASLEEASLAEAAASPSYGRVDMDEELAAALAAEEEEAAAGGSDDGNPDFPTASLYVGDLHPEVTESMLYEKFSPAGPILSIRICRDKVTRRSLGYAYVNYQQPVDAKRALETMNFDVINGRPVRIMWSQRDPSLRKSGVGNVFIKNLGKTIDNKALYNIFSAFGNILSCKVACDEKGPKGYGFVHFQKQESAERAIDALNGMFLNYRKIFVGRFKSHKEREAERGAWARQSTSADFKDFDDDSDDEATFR
UCAACCC: -0.249
GCUCUGG: -0.153
ACACCUC: -0.126
CUUCCUA: -0.325
UCGGGGC: 0.0714
UCUGAUC: -0.298
UCAUAGU: -0.193
UCCUUGG: -0.304
AAAAGCG: 4.46
UCUAUGC: -0.324
UUCGAAU: -0.24
UCCUCGG: -0.46
GUGAGGC: -0.15
UAACUGA: -0.162
GCUCCGU: -0.278
UGUACUA: -0.191
UUAUUAA: -0.0863
UGGCGGG: 0.274
AGGGUAU: 0.12
UUACGGA: 0.00798
CUAAAUU: 0.441
CAAAGGG: 0.374
GCAGCUU: -0.104
GCUCUUA: -0.22
AUGAUGC: -0.101

Study 3
Target: Fragile X messenger ribonucleoprotein 1, C-terminal low-complexity region (Fmr1, Mus musculus, UniProt P35922)
Technique: RNA Bind-n-Seq
Form: RNA
Sample: in vitro
Concentration: 200 nM
Setting: whole 134-nt RNA, ends assumed
Together with: 150 mM LiCl
Baseline: input library
Reading: higher = stronger binding
Endpoint: log2 enrichment
All molecules: 7-deaza-guanosine replaces G
Shared flanks, not repeated: GGGAGUUCUACAGUCCGACGAUC … UGGAAUUCUCGGGUGUCAAGG
UCAAGUCCUGUGCUACACAUCGUAUGUACCGAAUCGGUGGAAAGGAAAAAAAGGAAAGUAUUAUGUUACGCCGUUCGGAUCUGCACUUCC: -1.07
UGGCCCUGGUGGCAUGCGGGGAGGAAGAGGUGGCCUCAUGGAUCGUGGUGGUCUCGGUGGAAUGUUCAGAGGUGGCCGUGGUGGAGACAG: 0.493
CACAGACAACACGCACCCACACAGACACAGAGGGAAGGGGUUGGGAUGGGGACAGGGUGCACAGCAGGGCGGGGAAAGACCCCAGCCCCU: 2.18
CUGUGCUACACAUCGUAUGUACCGAAUCGGUUUUUUUGGGGUUUUUUUGGGUUUUUUUGGGGAAAGUAUUAUGUUACGCCGUUCGGAUCU: 1.33
UGGCCCUGGUGGAAUGCGGGGAGGAAGAGGUGGCCUCAUGGAUCGUGGUGGUCCCGGUGGAAUGUUCAGAGGUGGCCGUGGUGGAGACAG: 0.687
CCUGUGCUACACAUCGUAUGUACCGAAUCAAAGUGUGUGUGUGUAAAGUGUGUGUGUAAAAAAGUAUUAUGUUACGCCGUUCGGAUCUGC: -1.68
CUCAAGUCCUGUGCUACACAUCGUAUGUACCGAAUCGGGUGGGAAAGGGUGGGAAAGUAUUAUGUUACGCCGUUCGGAUCUGCACUUCCA: 0.214
CAAGUCCUGUGCUACACAUCGUAUGUACCGAAUCGGUUUUUGGUGGAAAAAAAGGAAAGUAUUAUGUUACGCCGUUCGGAUCUGCACUUC: -1.42
UCAAGUCCUGUGCUACACAUCGUAUGUACCGAAUCGGAGGUUUUUUUGGUUUGGAAAGUAUUAUGUUACGCCGUUCGGAUCUGCACUUCC: -2.27
AAGUCCUGUGCUACACAUCGUAUGUACCGAAUCGGGUUUGGGUUUGGGGUUUGGGGAAAGUAUUAUGUUACGCCGUUCGGAUCUGCACUU: -1.58
UCAAGUCCUGUGCUACACAUCGUAUGUACCGAAUCGGGAAAGGGUGGGAAAGGGAAAGUAUUAUGUUACGCCGUUCGGAUCUGCACUUCC: -1.25

Study 4
Target: Prothrombin, mature alpha-thrombin (F2, Homo sapiens, UniProt P00734)
Technique: aptamer microarray, sandwich
Form: DNA with 2'F-ANA
Sample: in vitro
Concentration: 200 nM
Setting: whole 15-mer aptamer, many near background
Together with: Cy3 exosite-II aptamer, 400 nM
Reading: higher = stronger binding
Endpoint: mean fluorescence intensity
Sequence: GGTTGGTGTGGTTGG
2'F-ANA at 2 7 8 9 10 12 13: 175 a.u.
2'F-ANA at 2 6 8 10 12 13 15: 138 a.u.
2'F-ANA at 1 3 6 7 8 10 11 13: 126 a.u.
2'F-ANA at 1 3 8 9 10 15: 87.4 a.u.
2'F-ANA at 2 3 5 6 9 10 11 13 14: 45.8 a.u.
2'F-ANA at 1 2 3 4 7 10 12 13 14 15: 60.2 a.u.
2'F-ANA at 2 5 8 13: 54.9 a.u.
2'F-ANA at 5 6 7 9 10 12 13 15: 72.5 a.u.
2'F-ANA at 2 3 4 5 7 13 15: 60 a.u.
2'F-ANA at 1 3 5 7 11: 53.7 a.u.
2'F-ANA at 2 4 5 6 8 9 10 11 13 14: 66.1 a.u.
2'F-ANA at 1 3 7 8 9 10 13 14 15: 60.1 a.u.
2'F-ANA at 2 7 10 12 15: 196 a.u.
2'F-ANA at 1 2 3 4 5 6 7 8 10 12 14 15: 46.3 a.u.
2'F-ANA at 2 3 6 8 9 12 14: 472 a.u.
2'F-ANA at 1 2 4 5 6 9 10 12 13 14 15: 50.9 a.u.
2'F-ANA at 1 2 3 4 10 13: 52.7 a.u.
2'F-ANA at 1 4 5 6 8 9 10 11 12 15: 82.4 a.u.
2'F-ANA at 3 4 5 6 7 8 9 12 13 14: 62.7 a.u.
2'F-ANA at 1 7 11 12: 358 a.u.
2'F-ANA at 2 5 7 10 12 13 14 15: 49.2 a.u.
